Measured values collected from several papers.
Parts stem from different laboratories: compare values within a part only.

Sample 1
Target: Replicase polyprotein 1ab, main protease (rep, Severe acute respiratory syndrome coronavirus 2, UniProt P0DTD1)
Effect on: enzyme activity
Mode: inhibitor
Tested at: 20 µM
Notes: primary screen
For `O=C1/C(=C/c2ccccc2)C(NC2CCCCC2)c2ccccc21` (stereo not shown), the inhibition was 36.8%.
For `Cc1ccc(C)c(-n2sc3cc(F)ccc3c2=O)c1`, the inhibition was 101%.
For `N#Cc1c(-c2ccccc2)cc(-c2cc(Br)ccc2O)[nH]c1=O`, the inhibition was 31.6%.
`Cn1sc(=O)n(Cc2ccccc2)c1=O` gave an inhibition of 101%.

Sample 2
Cell line: HEK-293T/ACE2
Tested at: 10 µM
Time: 16 h
Reference: vehicle
`OCCN1C[C@H](O)[C@@H](O)[C@H](O)[C@H]1CO` has a viability of 101%.
`NC(=O)N1c2ccccc2C=Cc2ccccc21` has a viability of 101%.
`COc1ncnc(NS(=O)(=O)c2ccc(N)cc2)c1OC` gave a viability of 99.3%.
`COC1=CC(=O)C[C@@H](C)[C@]12Oc1c(Cl)c(OC)cc(OC)c1C2=O` has a viability of 100%.
The viability of `CCC(Cc1c(I)cc(I)c(N)c1I)C(=O)O` (stereo not shown) is reported as 101%.

Sample 3
Target: Replicase polyprotein 1ab, polymerase (rep, Severe acute respiratory syndrome coronavirus 2, UniProt P0DTD1)
Effect on: enzyme activity
Mode: inhibitor
Tested at: 20 µM
With `CC(C)[C@H]1[C@@H]2CC[C@@H](C2)[C@@H]1N` the inhibition was 0.78%.
The inhibition of `CC(C)C(=O)Nc1ncc(-c2cc(C(F)F)nn2-c2c(Cl)cccc2Cl)s1` is reported as 19.3%.
For `Cc1c2oc3c(C)ccc(C(=O)N[C@@H]4C(=O)N[C@H](C(C)C)C(=O)N5CCC[C@H]5C(=O)N(C)CC(=O)N(C)[C@@H](C(C)C)C(=O)O[C@@H]4C)c3nc-2c(C(=O)N[C@@H]2C(=O)N[C@H](C(C)C)C(=O)N3CCC[C@H]3C(=O)N(C)CC(=O)N(C)[C@@H](C(C)C)C(=O)O[C@@H]2C)c(N)c1=O`, the inhibition was 10.8%.
The inhibition of `CNC[C@H](O)c1cccc(O)c1` is reported as 18.7%.
For `N[C@@H](Cc1c[nH]c2ccccc12)C(=O)O`, the inhibition was -0.61%.
`CC1(CN)Cc2ccccc2C1` gave an inhibition of 0.66%.

Sample 4
Target: Max dimerization protein 1, bHLH-zipper, MAX partner unstated (MXD1, Homo sapiens, UniProt Q05195, residues 56-136)
Technique: protein-binding microarray
Form: double-stranded DNA, one strand shown
Sample: in vitro
Tested at: not given
Notes: k-mer, scored over probes, only values ≥0.25
Reading: higher = stronger binding
Target sequence (chain): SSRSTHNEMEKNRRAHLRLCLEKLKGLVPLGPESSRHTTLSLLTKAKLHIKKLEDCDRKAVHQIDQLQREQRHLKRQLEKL
The E-score of `CGTGCTTC` is reported as 0.293.
For `AGGGGCAT`, the E-score was 0.27.
`ACATGTGC` gave an E-score of 0.467.
For `CGCACCCC`, the E-score was 0.283.

For quick reference, copied from above (sample 3):
For `Cc1c2oc3c(C)ccc(C(=O)N[C@@H]4C(=O)N[C@H](C(C)C)C(=O)N5CCC[C@H]5C(=O)N(C)CC(=O)N(C)[C@@H](C(C)C)C(=O)O[C@@H]4C)c3nc-2c(C(=O)N[C@@H]2C(=O)N[C@H](C(C)C)C(=O)N3CCC[C@H]3C(=O)N(C)CC(=O)N(C)[C@@H](C(C)C)C(=O)O[C@@H]2C)c(N)c1=O`, the inhibition was 10.8%.
The inhibition of `CNC[C@H](O)c1cccc(O)c1` is reported as 18.7%.
For `N[C@@H](Cc1c[nH]c2ccccc12)C(=O)O`, the inhibition was -0.61%.
